Experimental data collected from several papers.
Compare with care: the assays were run in different laboratories. Several values in a cell are separate wells, animals, samples, runs or records. ± marks the error that the study gave.
ALB: Albumin (ALB, Homo sapiens, UniProt P02768)
uncharacterized protein: uncharacterized protein (Spodoptera exigua, UniProt F1CEY0)
KRAS G12D GDP-bound: GTPase KRas, GDP-bound (KRAS, Homo sapiens, UniProt P01116, G12D)
ULK1: Serine/threonine-protein kinase ULK1 (ULK1, Homo sapiens, UniProt O75385)
UniProt Q16774, sequence (whole entry, unmodified, looked up): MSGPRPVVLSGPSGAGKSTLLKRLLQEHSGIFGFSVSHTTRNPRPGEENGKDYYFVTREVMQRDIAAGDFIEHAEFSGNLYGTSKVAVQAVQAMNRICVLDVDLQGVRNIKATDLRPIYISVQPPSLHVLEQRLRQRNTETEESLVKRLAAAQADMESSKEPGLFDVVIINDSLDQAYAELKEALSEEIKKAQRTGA
UniProt O76090, sequence (whole entry, unmodified, looked up): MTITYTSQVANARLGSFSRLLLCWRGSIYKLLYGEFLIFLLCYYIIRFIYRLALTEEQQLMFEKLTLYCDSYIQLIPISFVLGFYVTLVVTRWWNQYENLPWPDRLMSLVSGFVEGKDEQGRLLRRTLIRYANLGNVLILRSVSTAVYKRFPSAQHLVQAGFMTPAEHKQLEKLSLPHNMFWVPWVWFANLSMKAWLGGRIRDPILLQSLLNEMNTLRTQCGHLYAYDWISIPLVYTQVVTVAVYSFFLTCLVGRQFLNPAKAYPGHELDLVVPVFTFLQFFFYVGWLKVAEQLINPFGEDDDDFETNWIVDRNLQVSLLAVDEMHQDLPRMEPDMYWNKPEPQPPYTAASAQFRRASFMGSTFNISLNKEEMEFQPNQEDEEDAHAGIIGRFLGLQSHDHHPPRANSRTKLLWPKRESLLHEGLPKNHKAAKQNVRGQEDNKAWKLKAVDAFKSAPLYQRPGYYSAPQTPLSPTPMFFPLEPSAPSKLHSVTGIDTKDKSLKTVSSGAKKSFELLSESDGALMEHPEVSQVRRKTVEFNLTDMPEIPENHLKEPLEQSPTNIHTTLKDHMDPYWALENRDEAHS
UniProt P11388, sequence (whole entry, looked up): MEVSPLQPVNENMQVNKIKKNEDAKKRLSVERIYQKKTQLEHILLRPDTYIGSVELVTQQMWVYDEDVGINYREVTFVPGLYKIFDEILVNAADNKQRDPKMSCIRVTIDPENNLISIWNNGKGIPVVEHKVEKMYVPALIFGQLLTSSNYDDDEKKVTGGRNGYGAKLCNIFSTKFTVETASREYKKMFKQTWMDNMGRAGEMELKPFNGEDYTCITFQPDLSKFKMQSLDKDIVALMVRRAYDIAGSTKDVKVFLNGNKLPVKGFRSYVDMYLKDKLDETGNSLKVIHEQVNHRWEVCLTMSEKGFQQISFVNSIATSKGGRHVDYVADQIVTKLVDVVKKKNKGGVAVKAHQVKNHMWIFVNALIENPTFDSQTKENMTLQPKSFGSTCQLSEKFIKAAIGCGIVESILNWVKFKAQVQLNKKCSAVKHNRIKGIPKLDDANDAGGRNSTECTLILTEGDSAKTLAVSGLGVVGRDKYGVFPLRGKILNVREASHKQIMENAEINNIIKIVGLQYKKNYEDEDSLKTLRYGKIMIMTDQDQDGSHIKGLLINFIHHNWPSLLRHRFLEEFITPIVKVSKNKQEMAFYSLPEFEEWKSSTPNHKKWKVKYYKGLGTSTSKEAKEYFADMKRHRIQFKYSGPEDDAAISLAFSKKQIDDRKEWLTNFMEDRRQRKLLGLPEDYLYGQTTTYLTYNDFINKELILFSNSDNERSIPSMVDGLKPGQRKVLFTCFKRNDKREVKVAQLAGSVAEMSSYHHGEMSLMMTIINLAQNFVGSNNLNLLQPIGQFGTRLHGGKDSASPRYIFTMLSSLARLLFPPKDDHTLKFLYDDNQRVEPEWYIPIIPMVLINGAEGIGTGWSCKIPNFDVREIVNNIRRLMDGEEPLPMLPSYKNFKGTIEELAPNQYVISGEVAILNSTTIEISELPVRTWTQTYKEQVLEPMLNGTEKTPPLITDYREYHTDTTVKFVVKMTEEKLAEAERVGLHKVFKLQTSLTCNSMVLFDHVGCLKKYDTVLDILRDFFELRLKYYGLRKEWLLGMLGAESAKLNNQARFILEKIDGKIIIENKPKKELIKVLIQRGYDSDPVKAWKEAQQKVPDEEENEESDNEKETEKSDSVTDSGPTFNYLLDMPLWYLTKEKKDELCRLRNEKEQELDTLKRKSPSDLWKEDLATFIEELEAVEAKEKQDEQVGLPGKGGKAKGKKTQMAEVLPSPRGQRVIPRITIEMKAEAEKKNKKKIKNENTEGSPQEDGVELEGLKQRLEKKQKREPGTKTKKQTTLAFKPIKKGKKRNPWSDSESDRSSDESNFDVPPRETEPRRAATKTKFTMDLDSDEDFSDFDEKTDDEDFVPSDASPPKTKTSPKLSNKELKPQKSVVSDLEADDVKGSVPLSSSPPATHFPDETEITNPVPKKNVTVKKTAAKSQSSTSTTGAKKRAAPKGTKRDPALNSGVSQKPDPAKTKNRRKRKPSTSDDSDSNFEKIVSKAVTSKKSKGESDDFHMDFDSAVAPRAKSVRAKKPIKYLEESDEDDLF
UniProt P19793, sequence (whole entry, looked up): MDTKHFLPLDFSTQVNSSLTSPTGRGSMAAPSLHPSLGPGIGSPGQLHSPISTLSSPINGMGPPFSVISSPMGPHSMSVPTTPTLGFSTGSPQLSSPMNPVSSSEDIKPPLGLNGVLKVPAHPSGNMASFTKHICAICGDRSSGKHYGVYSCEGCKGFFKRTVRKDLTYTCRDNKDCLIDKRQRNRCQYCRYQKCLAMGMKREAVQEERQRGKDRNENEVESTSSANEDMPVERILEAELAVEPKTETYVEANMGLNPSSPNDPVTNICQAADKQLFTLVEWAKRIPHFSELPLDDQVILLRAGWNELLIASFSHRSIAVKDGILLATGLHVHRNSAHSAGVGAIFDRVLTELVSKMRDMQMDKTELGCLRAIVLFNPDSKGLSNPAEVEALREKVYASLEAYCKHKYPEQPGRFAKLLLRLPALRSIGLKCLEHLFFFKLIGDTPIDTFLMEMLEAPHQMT
UniProt P51575, sequence (whole entry, unmodified, looked up): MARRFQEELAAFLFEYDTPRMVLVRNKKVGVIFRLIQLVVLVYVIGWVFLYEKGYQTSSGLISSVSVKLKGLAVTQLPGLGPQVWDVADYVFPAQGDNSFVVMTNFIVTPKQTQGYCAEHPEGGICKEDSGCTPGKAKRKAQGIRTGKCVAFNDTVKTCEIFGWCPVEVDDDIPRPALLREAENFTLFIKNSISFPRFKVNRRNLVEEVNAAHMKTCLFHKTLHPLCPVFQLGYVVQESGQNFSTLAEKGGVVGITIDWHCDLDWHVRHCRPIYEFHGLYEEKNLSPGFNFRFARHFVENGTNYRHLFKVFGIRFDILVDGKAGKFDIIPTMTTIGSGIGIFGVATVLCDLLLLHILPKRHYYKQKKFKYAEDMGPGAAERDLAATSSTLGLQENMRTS
UniProt O75385, sequence (whole entry, looked up): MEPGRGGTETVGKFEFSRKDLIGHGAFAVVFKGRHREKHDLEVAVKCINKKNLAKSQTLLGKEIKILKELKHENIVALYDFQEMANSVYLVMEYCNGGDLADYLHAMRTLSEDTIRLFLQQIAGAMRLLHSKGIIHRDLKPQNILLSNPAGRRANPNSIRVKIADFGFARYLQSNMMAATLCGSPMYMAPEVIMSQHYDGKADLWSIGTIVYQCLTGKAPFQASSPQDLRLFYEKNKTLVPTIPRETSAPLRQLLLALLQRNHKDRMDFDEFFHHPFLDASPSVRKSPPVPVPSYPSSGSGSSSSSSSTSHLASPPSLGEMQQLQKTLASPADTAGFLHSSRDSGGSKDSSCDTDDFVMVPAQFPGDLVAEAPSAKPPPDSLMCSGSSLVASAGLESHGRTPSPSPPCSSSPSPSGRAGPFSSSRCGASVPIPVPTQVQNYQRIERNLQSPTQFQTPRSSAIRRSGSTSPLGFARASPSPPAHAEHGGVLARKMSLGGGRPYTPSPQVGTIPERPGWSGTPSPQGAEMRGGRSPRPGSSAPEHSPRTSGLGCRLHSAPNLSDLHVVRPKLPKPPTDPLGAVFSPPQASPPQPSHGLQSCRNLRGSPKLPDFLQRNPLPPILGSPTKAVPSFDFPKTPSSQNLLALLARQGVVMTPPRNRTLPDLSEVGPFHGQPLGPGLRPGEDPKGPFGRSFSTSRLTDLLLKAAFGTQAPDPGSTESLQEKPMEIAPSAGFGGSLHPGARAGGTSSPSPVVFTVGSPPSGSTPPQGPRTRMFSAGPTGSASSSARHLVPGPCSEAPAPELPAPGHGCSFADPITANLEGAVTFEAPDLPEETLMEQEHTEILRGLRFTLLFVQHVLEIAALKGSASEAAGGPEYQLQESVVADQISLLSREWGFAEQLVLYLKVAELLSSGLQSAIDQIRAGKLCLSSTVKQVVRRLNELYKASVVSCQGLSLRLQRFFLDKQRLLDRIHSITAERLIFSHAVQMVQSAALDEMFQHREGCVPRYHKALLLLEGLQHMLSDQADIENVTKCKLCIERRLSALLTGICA
UniProt P00441, sequence (whole entry, unmodified, looked up): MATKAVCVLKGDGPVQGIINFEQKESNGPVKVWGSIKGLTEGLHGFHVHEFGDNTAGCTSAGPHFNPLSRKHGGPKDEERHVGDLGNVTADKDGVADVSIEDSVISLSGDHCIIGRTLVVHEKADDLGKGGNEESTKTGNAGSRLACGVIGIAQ

SMILES | target | test | system | setting | scale | quantity | value
Clc1ccccc1C(c1ccccc1)(c1ccccc1)n1ccnc1 | TRPM3 (Homo sapiens, UniProt Q9HCF6) | whole-cell patch clamp | HEK-293T expressing hTRPM3-YFP | 10 µM, at +80 mV, added: pregnenolone sulfate 40 µM, DTT pretreatment |  | current density | 103 ± 19.9 pA/pF
O=[N+]([O-])c1ccc(OP(=O)(O)O)cc1 | alkaline phosphatase | substrate |  |  |  | Km | 207 µM
C1CCCC1.C1CCCC1.[Cl][W][Cl] | ALB | binding, van't Hoff fluorescence quenching |  | concentration not given |  | entropy change | 89.7 J/(mol K)
CC[C@@H](C)[C@@H](NC(=O)[C@@H](Cc1ccc(O)cc1)NC(=O)[C@H]1CCCN1C(=O)[C@@H](CCCNC(=N)N)NC(=O)[C@H](N)Cc1c[nH]cn1)C(=O)N[C@H](C)C(=O)N[C@H](Cc1c[nH]cn1)C(=O)N[C@H](CCCNC(=N)N)C(=O)N[C@@H](C(=O)N[C@H](Cc1ccc(O)cc1)C(=O)N[C@H](CO)C(=O)N[C@H](Cc1ccccc1)C(N)=O)C(C)C | Transferrin receptor protein 1 (Tfrc, Mus musculus, UniProt Q62351) | flow cytometry | B16 | 48 h, unit not given | reference: 0 h | surface TFRC expression | 0.487
O=c1nc(SCc2cc(F)cc(C(F)(F)F)c2)nc(SCc2ccc3sccc3c2)[nH]1 | DNA topoisomerase 2-alpha (TOP2A, Homo sapiens, UniProt P11388) | ATPase activity |  | 3.9 µM, added: ATP 0.1 mM |  | ATP hydrolysis rate | 1.17 µM/min and 0.778 µM/min
CNC(=O)[C@@]12C[C@@H]1[C@@H](n1cnc3c(NCc4cccc(Cl)c4)nc(C#Cc4ccc(F)c(F)c4)nc31)[C@H](O)[C@@H]2O | Adenosine receptor A3 (ADORA3, Homo sapiens, UniProt P0DMS8) | cAMP formation, agonist | HEK293 overexpressing receptor |  |  | Emax | 100%
CC(=C/C(=O)O)/C=C/C=C(\C)C1C=C2C(C)(C)CCCC2(C)O1 (stereo not shown) | Rhodopsin (RHO, Homo sapiens, UniProt P08100, P23H) | immunostaining, refers to: opsin | COS-7 transfected | 30.00 µM, unit not given | reference: surface over total stained cells | plasma membrane localization | 0.95
NC/C(=C\F)COc1cccc(Cn2c(=S)[nH]c(=O)c3[nH]cnc32)c1 | Amine oxidase copper-containing 3 (Canis lupus familiaris, UniProt A0A8I3MYY3) | inhibitor | dog adipose tissue | 0.1111 µM |  | inhibition | 105%
C=CC(=O)N1CCC(COCC(=O)N2CCN(c3nc(-c4cnc(N)nc4C(F)F)nc(N4CCOC[C@@H]4C)n3)CC2)CC1 | Calcium/calmodulin-dependent protein kinase type 1G (CAMK1G, Homo sapiens, UniProt Q96NX5) | KINOMEscan |  | 1 µM |  | remaining binding | 100%
CCCCCCCO | uncharacterized protein | binding, competitor, fluorescence displacement |  | 20 µM, pH 7.4, added: 1-NPN 20 µM | reference: 1-NPN alone | relative fluorescence | 61.8%
COC(=O)c1cn(C)c2ccc(-c3cccnc3)cc12 | Retinoic acid receptor RXR-alpha (RXRA, Homo sapiens, UniProt P19793) | reporter gene, Gal4 hybrid reporter |  | 10 µM | reference: vehicle | activation | 0.95 fold
Nc1ccc(C(=O)O)cc1 | BEST1, with wild-type BEST1 (Homo sapiens, UniProt O76090, D302A) | ion current, whole-cell patch clamp | HEK293 co-expressing mutant and wild-type | concentration not given, voltage 60 mV |  | current density | 5.25 pA/pF and 12.1 pA/pF and 10.1 pA/pF and 17.4 pA/pF and 11.8 pA/pF and 6.51 pA/pF
NC(=O)c1ccc[n+]([C@@H]2O[C@H](COP(=O)([O-])OP(=O)(O)OC[C@H]3O[C@@H](n4cnc5c(N)ncnc54)[C@H](O)[C@@H]3O)[C@@H](O)[C@H]2O)c1 | 3 beta-hydroxysteroid dehydrogenase/Delta 5-->4-isomerase type 1 (HSD3B1, Homo sapiens, UniProt P14060) | cofactor |  |  |  | Km | 34.1 µM
C=CC(=C)CCC=C(C)C | uncharacterized protein | binding, competitor, fluorescence displacement |  | 20 µM, pH 7.4, added: 1-NPN 20 µM | reference: 1-NPN alone | relative fluorescence | 64.7%
Cc1cc(-c2ccnc3[nH]cc(F)c23)cc(F)c1[C@@]1(O)[C@H](C)CN(C(=O)CN)C[C@@H]1C | Tyrosine-protein kinase JAK1 (JAK1, Homo sapiens, UniProt P23458) | ATP/ADP probe binding, KiNativ | HEK293T lysate | 10 µM, activation loop domain 1 |  | probe labelling inhibition | 78.7%
C[S+](CC[C@H](N)C(=O)[O-])C[C@H]1O[C@@H](n2cnc3c(N)ncnc32)[C@H](O)[C@@H]1O (stereo partly shown) | Histone-lysine N-methyltransferase 2C (KMT2C, Homo sapiens, UniProt Q8NEZ4) | substrate, enzyme-coupled methylation |  | added: H3 peptide 400 µM |  | apparent Vmax | 2.7 ± 0.2 µM/min
C#Cc1c(F)ccc2cc(O)cc(-c3ncc4c(N5CC6CCC(C5)N6)nc(OC[C@@]56CCCN5C[C@H](F)C6)nc4c3F)c12 | GTPase KRas, GDP-bound (KRAS, Homo sapiens, UniProt P01116, G13D) | SPR |  |  |  | dissociation rate constant koff | 0.000375 ± 7.7e-05 s⁻¹
[O-][S+]1CCCCS1 (stereo not shown) | Superoxide dismutase [Cu-Zn] (SOD1, Homo sapiens, UniProt P00441, G94A) | LC-MS | brain homogenate | 0.5 µM, 1 h, 37 °C |  | SOD1 dimer fraction | 0.34%
CN(C)C(=O)CN1CCN(c2cnc3c(cc(C(=O)NCc4ccc(Cl)cc4)c(=O)n3CC(=O)N3CC(C)(F)C3)n2)C1=O | DNA polymerase catalytic subunit (Human cytomegalovirus, UniProt P08546) | enzyme activity, inhibitor |  |  |  | Hill slope | 0.64
Nc1ncnc2c1ncn2[C@@H]1O[C@H](COP(=O)(O)CP(=O)(O)OP(=O)(O)O)[C@@H](O)[C@H]1O | P2X purinoceptor 1 (P2RX1, Homo sapiens, UniProt P51575, K136A) | saturation binding | HEK293 | 1 nM |  | specific binding | 106 CCPM and 83.5 CCPM
Cc1occc(=O)c1[O-].[Cl-].[W+4].c1cc[cH-]c1.c1cc[cH-]c1 | ALB | binding, fluorescence quenching |  | 310 K |  | Gibbs free energy change | -24.8 kJ/mol
Nc1nc2c(ncn2[C@@H]2O[C@H](COP(=O)(O)O)[C@@H](O)[C@H]2O)c(=O)[nH]1 | GUK1 (Homo sapiens, UniProt Q16774, E72A) | enzyme activity, NADH-coupled |  | 125 µM |  | reaction rate | -0.404 s⁻¹ and 0.816 s⁻¹ and 0.0426 s⁻¹

SMILES | target | test | system | setting | scale | quantity | value
CC[C@H](C)[C@@H]1NC(=O)[C@H](Cc2ccc(O)cc2)NC(=O)[C@H](CC(C)C)NC(=O)[C@@H]2CCCN2C(=O)[C@@H](NC(=O)[C@H](CCCNC(=N)N)NC(=O)[C@H](CCCNC(=N)N)NC(C)=O)CSSC[C@@H](C(=O)N[C@@H](CCCNC(=N)N)C(=O)N[C@@H](CCCNC(=N)N)C(N)=O)NC(=O)[C@H](C(C)C)NC(=O)[C@@H]2CCCN2C(=O)[C@H](CC(=O)O)NC(=O)[C@H](Cc2ccc(O)cc2)NC(=O)[C@H](CO)NC1=O | KRAS G12D GDP-bound | affinity selection mass spectrometry |  | mixture library 1, added: protein titration up to 5 µM | lower is stronger binding | lowest bound protein concentration | 0.08 µM
N[C@H](CNC(=O)c1ccc(-c2ccccc2Br)s1)C(=O)O | Glutamate receptor ionotropic, NMDA 1, with GluN2C (Grin1, Rattus norvegicus, UniProt P35439, S688A) |  |  |  | reference: mutant over wild type | potency ratio | 7.3 fold
c1ccc2c(Oc3nc(Nc4ccc(N5CCOCC5)cc4)c4ncn(C5CCCCC5)c4n3)cccc2c1 | Protein smoothened (SMO, Homo sapiens, UniProt Q99835) | agonist | CHO cell membranes, SMO transfected | concentration not given | reference: basal | stimulation | 19.8 ± 2.6%
CC(C)C[C@H](N)C(=O)Nc1ccc2ccccc2c1 | Puromycin-sensitive aminopeptidase (Rattus norvegicus, UniProt F1M9V7) | substrate |  |  |  | Km | 2 µM
CCCCC[C@H](O)/C=C/[C@H]1[C@H](O)CC(=O)[C@@H]1C/C=C\CCCC(=O)O | Prostaglandin E2 receptor EP1 subtype (PTGER1, Homo sapiens, UniProt P34995, G92T) | IP1 accumulation, agonist | AD293 | 1 h, EP1 G92T mutant |  | Emax | 108 ± 3.25%
CC(=O)N[C@@H](CCCNC(=N)N)C(=O)N[C@@H](CCCNC(=N)N)C(=O)N[C@H]1CSSC[C@@H](C(=O)N[C@@H](CCCNC(=N)N)C(=O)N[C@@H](CCCNC(=N)N)C(N)=O)NC(=O)[C@H](C(C)C)NC(=O)[C@@H]2CCCN2C(=O)[C@H](CC(=O)O)NC(=O)[C@H](Cc2ccc(O)cc2)NC(=O)[C@H](CO)NC(=O)[C@H](CC2CCCC2)NC(=O)[C@H](Cc2ccc(-c3ccccc3)cc2)NC(=O)[C@H](CC(C)C)NC(=O)[C@@H]2CCCN2C1=O | KRAS G12D GDP-bound | affinity selection mass spectrometry |  | mixture library 1, added: protein titration up to 5 µM | lower is stronger binding | lowest bound protein concentration | 5 µM
CC[C@@H]1[C@H](F)C(=O)N[C@@H]1COc1nccc2cc(C(N)=O)c(OC)cc12 | ULK1 | ATP-site probe binding, ActivX profiling | THP-1 cell lysate | 0.01 mM, Lys1 site |  | inhibition | 4.8%
O=C(Nc1cnccc1Cl)N1CCN(Cc2ccc3c(c2)OC(F)(F)O3)CC1 | Fatty-acid amide hydrolase 1 (FAAH, Homo sapiens, UniProt O00519) | enzyme activity, inhibitor | COS cells expressing human FAAH | 1 h | reference: whole cells over membrane preparation | potency ratio | 4 to 6
CCCCCCOC(C)=O | uncharacterized protein | binding, competitor, fluorescence displacement |  | 20 µM, pH 7.4, added: 1-NPN 20 µM | reference: 1-NPN alone | relative fluorescence | 70.5%
Nc1ncnc2c1ncn2[C@@H]1O[C@H](CSCC[C@H](N)C(=O)O)[C@@H](O)[C@H]1O | O-methyltransferase (Sorghum bicolor, UniProt A0A1B6PFV1) | ITC |  | concentration not given, added: RSV+ |  | binding stoichiometry | 0.94 ± 0.017
NCCS(=O)(=O)O | Sodium- and chloride-dependent taurine transporter (SLC6A6, Homo sapiens, UniProt P31641, Y138A) | binding, microscale thermophoresis |  | 488 nM, room temperature, added: 50 nM labelled protein | higher = more binding | normalised MST signal | -0.0176
C[C@@H](c1ccc(-n2cnc3c(N)ncnc32)cc1)N1CCc2nn(C)c(Cc3ccccc3)c2C1=O | ULK1 | KINOMEscan |  | 0.1 µM | reference: DMSO control | remaining binding | 68%
COc1cc(-c2[o+]c3cc(O)cc(O)c3cc2O[C@@H]2O[C@H](CO)[C@@H](O)[C@H](O)[C@H]2O)ccc1O | ALB | binding, fluorescence quenching |  | 20 °C |  | Gibbs free energy | -24.4 kJ/mol
CC(=O)c1ccccc1 | uncharacterized protein | binding, competitor, fluorescence displacement |  | 20 µM, pH 7.4, added: 1-NPN 20 µM | reference: 1-NPN alone | relative fluorescence | 69.7%
NCCCC(=O)O | Sodium- and chloride-dependent taurine transporter (SLC6A6, Homo sapiens, UniProt P31641, L306A) | binding, microscale thermophoresis |  | 62.5 µM, room temperature, added: 50 nM labelled protein | higher = more binding | normalised MST signal | 0.208
OC[C@H]1O[C@@H](Oc2cc3c(O)cc(O)cc3[o+]c2-c2ccc(O)c(O)c2)[C@H](O)[C@@H](O)[C@@H]1O | ALB | binding, fluorescence quenching |  | 40 °C |  | Gibbs free energy | -27.1 kJ/mol
COC(=O)c1cc(C(C)=NNc2nc(-c3ccc4c(c3)OCCCO4)cs2)ccc1O | Tyrosine-protein phosphatase non-receptor type 1 (PTPN1, Homo sapiens, UniProt P18031) | enzyme activity, inhibitor |  | 1.5 µM |  | Vmax | 6250 ΔRFU/min
N[C@H](CNC(=O)c1cc(Br)c(-c2ccccc2F)s1)C(=O)O | Glutamate receptor ionotropic, NMDA 1, with GluN2C (Grin1, Rattus norvegicus, UniProt P35439, Y692L) | receptor activation | rat | added: glutamate 300 µM |  | log EC50 | -1.09 µM
Cc1ccc2nc(NC(=O)c3ccccc3)[nH]c2c1 | Adenosine receptor A2a (ADORA2A, Homo sapiens, UniProt P29274) | binding, radioligand competition |  | 10 µM, added: [3H]ZM241385 |  | displacement | 17 ± 1%
Nc1ncnc2c1ncn2[C@@H]1O[C@H](CO[P@](=O)(O)O[P@](=O)(O)O[P@@](=O)(O)S)[C@@H](O)[C@H]1O | GUK1 (Homo sapiens, UniProt Q16774) | ITC |  | molar ratio 0.9041 |  | ΔH | -1.11 kcal/mol
CCCCCCCCCCCCCCCCCCc1ccc(O)cc1 | ALB | van't Hoff analysis |  | concentration not given, 310.15 K |  | binding entropy change | -35.1 J/mol/K
